Assay results of several laboratories.
Each numbered part is a random draw from the data of one study; scales do not carry over between parts.

Block 1
Target: RING finger protein unkempt homolog, zinc fingers 1-6, GST-SBP tag (UNK, Homo sapiens, UniProt Q9C0B0, residues 30-357)
Chain of UniProt Q9C0B0 (30-357, looked up): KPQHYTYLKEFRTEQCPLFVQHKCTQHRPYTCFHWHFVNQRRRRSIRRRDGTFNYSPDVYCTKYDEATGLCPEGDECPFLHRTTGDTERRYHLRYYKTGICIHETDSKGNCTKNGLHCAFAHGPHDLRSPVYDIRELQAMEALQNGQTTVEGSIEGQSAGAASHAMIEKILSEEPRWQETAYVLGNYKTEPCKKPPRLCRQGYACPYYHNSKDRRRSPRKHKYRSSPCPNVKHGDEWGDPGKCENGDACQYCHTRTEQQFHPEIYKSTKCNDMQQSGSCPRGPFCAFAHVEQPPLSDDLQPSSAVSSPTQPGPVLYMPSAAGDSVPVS
Technique: RNA Bind-n-Seq
Form: RNA
Matrix: in vitro
Tested at: not given
Setting: RNA with constant flanks, human-mouse chimeric sites, ends assumed
Baseline: input RNA pool
Direction: higher = stronger binding
`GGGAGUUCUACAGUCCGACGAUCCUUAAUGUUAAUAUUUUUGAAUAAAUGAAGCUAAAAUGUCUGCUUUUGGUACAACACGCAUUAAUAAAAGGUUAAGUUUUGUUUUCCACUGAAGUACGUAAUACUUAACAUCUCAGAAACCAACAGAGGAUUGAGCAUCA` has a bound/input enrichment of 0.512 ratio.
`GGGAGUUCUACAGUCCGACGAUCAAAGCCCAAGUAUUUUGAAAAAACUCGAACAGAUUUAACAAGGGUAGCCAGCUUGGAGUCUAGCAACUUGCCAAUGUGUUUACCAAUCUGGGGGCUUGUUUUUCUUUCCCUUCCUUAAAUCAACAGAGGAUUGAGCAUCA` gave a bound/input enrichment of 0.362 ratio.
With `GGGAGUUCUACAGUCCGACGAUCUGGCGCCUGCGCUCCCCGUUUUUAAAUUUAAGUGUAUUUUUAUAAGAUACAUGUAUUUACAAUUGAGCUUUUGUUACAUAAUGCUGAAAUGCUACUGGAGAUUAUGAAAAAAUGUUAAAUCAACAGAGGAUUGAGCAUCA` the bound/input enrichment was 0.361 ratio.
With `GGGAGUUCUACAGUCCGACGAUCUUAAUCCCCUUCGUUGCUCCCCCACUUCUCAUGGUAAUAACAAAGUCUUAUAUCCCCGUCCUAGCUUUUACUCAGAUGGCUUAUGGAGCCGGUUUCCUAGCUUUCUUGGGAGGGAUCAGACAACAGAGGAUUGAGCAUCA` the bound/input enrichment was 0.895 ratio.
With `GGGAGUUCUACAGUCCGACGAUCAACUUCGUGCAUCGGUUUCCCUUUGUAGCUGUUUCAAUUGGCUUCCUUGUGAAUAAAAAGAUAGAAUUUGGAAUUGUGUACAGCUGUGUGGAAGGCAAGAUGUACACCGGCAGGAAAGGGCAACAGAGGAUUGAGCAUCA` the bound/input enrichment was 2.55 ratio.
`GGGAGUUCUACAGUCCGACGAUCGAAUCCUACUCAGGCGGAUUUUGCAACACCAAGCUCACAGCAGCAGCAUCUUAGUCACAGUUAGGUAGUUUUGGGGCUCUGUGGCCAUGGUUUUACUCACAUGCAGGUUUGGAAAAUGUACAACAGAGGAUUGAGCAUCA` gave a bound/input enrichment of 2.54 ratio.
The bound/input enrichment of `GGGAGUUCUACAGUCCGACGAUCCUUUUUAAGAAGAUAUGUGAUGGGAUCUUUUAUACCCCUCAAUAUUUAAACCCUUCAGUAAUCAGCCUUUUGAAACAUAUGCUGCAGGUGGAUCCCAUGAAGAGGGCCACAAUCAAAGAUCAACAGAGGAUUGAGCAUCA` is reported as 0.228 ratio.
The bound/input enrichment of `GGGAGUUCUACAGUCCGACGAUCGAAUCCUACUCAGGCGGAUUUUGCAACACCAAGCUCACAGCAGCAGCAUCUUAGUCACAGUAGGGUAGUUUUGGGGCAAUAUUGCCAGGGUUUUAUUCACAUGCAGGUUUUGAAAAUGUACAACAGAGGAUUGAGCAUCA` is reported as 4.12 ratio.

Block 2
Target: RNA binding protein fox-1 homolog 2, RRM domain, GST-SBP tag (RBFOX2, Homo sapiens, UniProt O43251-10, residues 100-194)
Technique: RNA Bind-n-Seq
Form: RNA
Matrix: in vitro
Tested at: 365 nM
Setting: natural RNA segment, single round, ends assumed
Baseline: no-protein control
Direction: higher = stronger binding
Target sequence (chain): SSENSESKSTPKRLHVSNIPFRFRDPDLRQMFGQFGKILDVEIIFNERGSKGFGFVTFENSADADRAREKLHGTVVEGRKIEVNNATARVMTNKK
`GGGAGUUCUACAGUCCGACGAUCUAUGAAUGUGCAUUUCUUGACUUCACAGCAGCCACUUGACUAAUACCUUGUGUUCCGGGAAUAACAUGAUACUAUUCAGAGGAGCCAGAAGUAAAGUUUAUUUCAUGGAUUGGAAUUCUCGGGUGCCAA` — result for “RBNS enrichment (R)”: 1.16.
For `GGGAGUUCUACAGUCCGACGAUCGUCAUUAACAAGAAACAGGAUAUGCUUUAAGACAGAAUUCACUGUCUGUUGCUUCAGUAAAAGGACCUCGGGGAAUAAAACAUUUCUCUCUUAUAUGCCAGAAUGUAGGCUGGAAUUCUCGGGUGCCAA`, “RBNS enrichment (R)” read 0.772.
`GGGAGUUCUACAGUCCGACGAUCGGAUACUCAAUCUGGCCUUAAAAAGAUACACAAAGAUGGGCUGUGGGUCCCUGGAAAGGGGGAGAGUUGCCCUUUACAGAAUCACUCGAGCCCUUUCCAGCACUGUUGGUUGGAAUUCUCGGGUGCCAA`: “RBNS enrichment (R)” 0.373.
For `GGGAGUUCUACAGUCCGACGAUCCCUGUUCAUUCCAAUCUUCUAAUUACAGUGGUUCCUAUCUCAGGGAUACUGGACUUUCUGACGCAGAUGAACAAUUAAGGGGAAAAGCUUCCCUUUUCCCUCUGUGGCAGUGGAAUUCUCGGGUGCCAA`, “RBNS enrichment (R)” read 0.176.
`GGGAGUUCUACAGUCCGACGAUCCUGAUUUCCUCAAAACGAAGUGGAAUUUACUACUGUUGUCAGUAUCGGUGUUUUGAAUUGGUGCCUGCCUAUAGAGAUAUAUUCACAGUUCAAAAGUCAGGUGCUGAGAGUGGAAUUCUCGGGUGCCAA` — result for “RBNS enrichment (R)”: 0.875.
Under “RBNS enrichment (R)”, `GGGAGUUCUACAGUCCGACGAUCUUUUUAAGAGAAGCAAAAACAAAAGUAAACUCCUUUCCCUGGCCCUCCAAACAUAUAUUCUGUGAGAUAACUGUGCCUGCUACCAAGUGUUAAUCCUGGGAUCGUAUUUUUGGAAUUCUCGGGUGCCAA` is recorded as 4.06.
Under “RBNS enrichment (R)”, `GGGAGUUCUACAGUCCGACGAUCAAAAUGAUUGGAAAUGAACUCUUGCCCUGGAAUAACCUUGACAAUUCAAACCGCGAUGUUUACUUUUUGUAUUGAUCACUUUUUUGCACUCCUUCUUCGUUGUCGAUGUUUGGAAUUCUCGGGUGCCAA` is recorded as 0.92.
`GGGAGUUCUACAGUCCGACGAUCCCCAUUUGCACUCUAUUUCAAAGAAUUGUUAUUGUUCCCUUUCGUUAAAAUCAGUGUUGGGAAUUAAAUUAUAAUUUGAGGGGAAAAUAUCCAAUGGGAAUGAAUGUAGAUGGAAUUCUCGGGUGCCAA` — result for “RBNS enrichment (R)”: 0.828.

Block 3
Target: Histone acetyltransferase KAT6A, winged helix 2, GST fusion (KAT6A, Homo sapiens, UniProt Q92794, residues 85-181)
Technique: protein binding microarray
Form: double-stranded DNA, one strand shown
Matrix: in vitro
Tested at: not given
Setting: 8-mer, flanks averaged, mean of 2 arrays, mostly near background
Baseline: not given
Direction: higher = stronger binding
Target sequence (chain): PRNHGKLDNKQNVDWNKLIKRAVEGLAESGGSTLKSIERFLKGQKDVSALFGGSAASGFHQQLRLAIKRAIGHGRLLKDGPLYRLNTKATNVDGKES
`AGCTGACA` gave an E-score of 0.117.
The E-score of `ACATATCA` is reported as -0.032.
With `GTGCGACA` the E-score was 0.0904.
The E-score of `GACATTCC` is reported as -0.132.
For `AGGTGATA`, the E-score was -0.124.
The E-score of `GTGCGTCA` is reported as 0.1.
`CATGCTCC` has an E-score of -0.00183.
The E-score of `CTTTTAGA` is reported as 0.0778.
`ATGTCATA` gave an E-score of -0.234.
With `CCGACAAC` the E-score was 0.147.
The E-score of `AATCACCT` is reported as -0.145.
The E-score of `ACGCGAGC` is reported as 0.0369.
`ACCGGGCT` has an E-score of 0.00685.
`CTAACTCA` has an E-score of -0.0395.
The E-score of `CTGCAAAA` is reported as 0.00097.
With `GCAGGAAA` the E-score was 0.0509.
For `AAGTCGAA`, the E-score was -0.0426.
The E-score of `ACGCAACG` is reported as 0.184.
The E-score of `AAGGGGCA` is reported as 0.133.
For `CTCGACAA`, the E-score was 0.0199.
The E-score of `GATTTTAA` is reported as 0.0227.
For `ACGTTAAT`, the E-score was -0.00105.
`GCGTACTA` has an E-score of -0.00347.
With `CACGCAAG` the E-score was 0.172.
The E-score of `AATTCAAA` is reported as 0.068.

Block 4
Target: Interferon regulatory factor 7, full length, phosphomimetic (IRF7, Homo sapiens, UniProt Q92985, residues 1-503, S101K/S471D/S472D/S475D/S476D/S477D/S483D/S484D/S487D)
Technique: protein-binding microarray
Form: double-stranded DNA, one strand shown
Matrix: in vitro
Tested at: 250 nM
Setting: 60-bp whole probe
With: salmon DNA 0.4 mg/ml
Baseline: random background probes
Direction: higher = stronger binding
All sequences stand within: GCCTAGCAC … GTCTTGATTCGCTTGACGCTGCTG
Residues (chain): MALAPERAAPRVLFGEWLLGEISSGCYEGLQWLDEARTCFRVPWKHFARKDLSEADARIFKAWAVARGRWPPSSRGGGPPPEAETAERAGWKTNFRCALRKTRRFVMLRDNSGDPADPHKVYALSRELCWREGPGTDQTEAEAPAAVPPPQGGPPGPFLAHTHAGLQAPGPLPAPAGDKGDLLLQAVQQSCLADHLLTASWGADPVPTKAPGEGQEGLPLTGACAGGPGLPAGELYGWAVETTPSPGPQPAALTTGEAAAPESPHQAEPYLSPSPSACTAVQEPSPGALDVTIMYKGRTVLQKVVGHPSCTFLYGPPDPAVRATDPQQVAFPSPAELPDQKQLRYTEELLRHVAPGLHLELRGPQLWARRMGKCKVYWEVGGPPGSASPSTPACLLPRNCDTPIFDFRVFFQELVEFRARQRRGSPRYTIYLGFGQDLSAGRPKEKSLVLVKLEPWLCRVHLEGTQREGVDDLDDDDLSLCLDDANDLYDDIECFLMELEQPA
`AAGACTTTGCTCTGTGCGTAGGTGCTA` has a log fluorescence of -0.397 z-score.
With `TTTTCACTTTCTTTAACTCAGTGCTAG` the log fluorescence was 3.34 z-score.
`TACGATTTCGGGTTTCGAGACGTGCTA` has a log fluorescence of 4.48 z-score.
For `TTAGGTTTCGGGTGTCGGTTAGTGCTA`, the log fluorescence was 5.04 z-score.
For `GTAAACCATCCAAATGTTATGTGCTAG`, the log fluorescence was -0.0589 z-score.
With `GTAGGTATCGGGTATCGGTTAGTGCTA` the log fluorescence was 1.17 z-score.
The log fluorescence of `TCAGATATCAGTTTCGATTAGTGCTAG` is reported as 8.74 z-score.
`TTAGGTTTCGGACCGGGTTAGTGCTAG` gave a log fluorescence of 2.62 z-score.
The log fluorescence of `TCACATCTCACTCTAATACTGTGCTAG` is reported as 0.43 z-score.
`CTGGGCAGGATGAGTTCCAGGTGCTAG` gave a log fluorescence of 1.1 z-score.
The log fluorescence of `GACGGTCTCCGACTGGGGACGTGCTAG` is reported as -0.55 z-score.
The log fluorescence of `TCCCCTCTCTTTCCAACTCTGTGCTAG` is reported as 0.621 z-score.
`GACGGTTTCCCACTGCTGACGTGCTAG` has a log fluorescence of 1.69 z-score.
`TCTCTTCTGCTTCCTCAGGACGTGCTA` gave a log fluorescence of 0.753 z-score.
`GACGGACTGGACTATCGGTACGTGCTA` gave a log fluorescence of -0.62 z-score.
The log fluorescence of `TCCCTTTTCATGCTCTTATAGTGCTAG` is reported as 2.37 z-score.
`ATTTATTTACTCTCTACATGGGTGCTA` has a log fluorescence of 0.795 z-score.
`TCATTTCCATCTCTCAAACTGTGCTAG` gave a log fluorescence of 3.08 z-score.
The log fluorescence of `TCACTCATACATCTGGGACTGTGCTAG` is reported as -0.0362 z-score.

Some of these lines once more (block 4):
`TCTCTTCTGCTTCCTCAGGACGTGCTA` gave a log fluorescence of 0.753 z-score.
`ATTTATTTACTCTCTACATGGGTGCTA` has a log fluorescence of 0.795 z-score.
`AAGACTTTGCTCTGTGCGTAGGTGCTA` has a log fluorescence of -0.397 z-score.
`TTAGGTTTCGGACCGGGTTAGTGCTAG` gave a log fluorescence of 2.62 z-score.
The log fluorescence of `TCACTCATACATCTGGGACTGTGCTAG` is reported as -0.0362 z-score.
`GACGGTTTCCCACTGCTGACGTGCTAG` has a log fluorescence of 1.69 z-score.
The log fluorescence of `TCCCCTCTCTTTCCAACTCTGTGCTAG` is reported as 0.621 z-score.
